Measured values gathered from unrelated publications.
Organism: Klebsiella pneumoniae

Structure (SMILES) = CC1(C)[C@H](NC(=O)/C(=N\OC2(C(=O)O)CC2)c2nsc(N)n2)C(=O)N1OS(=O)(=O)O; assay = agar dilution; test system = 2146, NDM-1; MIC = 32 µg/mL
Structure (SMILES) = CC[C@H](C)[C@H](NC(=O)[C@@H](CCCNC(=N)N)NC(=O)[C@H](CCCNC(=N)N)NC(=O)[C@H](Cc1ccc(O)cc1)NC(=O)[C@H](Cc1c[nH]c2ccccc12)NC(=O)[C@H](CCCNC(=N)N)NC(=O)[C@@H]1CCCN1C(=O)[C@H](CCCNC(=N)N)NC(=O)[C@@H]1CCCN1C(=O)[C@H](CC(C)C)NC(=O)[C@H](Cc1ccc(O)cc1)NC(=O)[C@@H]1CCCN1C(=O)[C@@H]1CCCN1C(=O)[C@H](CCCCN)NC(=O)[C@H](CC(=O)O)NC(=O)[C@@H](N)C(C)C)C(=O)N[C@@H](Cc1ccc(O)cc1)C(=O)N[C@@H](CC(N)=O)C(=O)N[C@H](CCCNC(=N)N)C(N)=O; assay = broth microdilution; test system = DSM 681; setting = 18 h, 37 °C, 25% MHB2; MIC = 4 µg/mL
Structure (SMILES) = C#CCNC(=O)[C@H]1NC(=O)[C@H]2NC(=O)[C@H](NC(=O)[C@@H]3NC(=O)[C@H](CC(N)=O)NC(=O)[C@H](NC(=O)[C@@H](CC(C)C)NC)[C@H](O)c4ccc(c(Cl)c4)Oc4cc3cc(c4O[C@@H]3O[C@H](CO)[C@@H](O)[C@H](O)[C@H]3O[C@H]3C[C@](C)(N)[C@H](O)[C@H](C)O3)Oc3ccc(cc3Cl)[C@H]2O)c2ccc(O)c(c2)-c2c(O)cc(O)cc21; assay = broth microdilution; test system = ATCC 13883, cation-adjusted Mueller-Hinton broth; setting = 18 to 20 h, 37 °C, 0.002% polysorbate 80; MIC = > 128 µg/mL
Structure (SMILES) = CC[C@H](C)[C@H](NC(=O)[C@@H](CCCNC(=N)N)NC(=O)[C@H](CCCNC(=N)N)NC(=O)[C@H](CCC(=O)O)NC(=O)[C@H](Cc1c[nH]c2ccccc12)NC(=O)[C@H](CCCNC(=N)N)NC(=O)[C@@H]1CCCN1C(=O)[C@H](CCCNC(=N)N)NC(=O)[C@@H]1CCCN1C(=O)[C@H](CC(C)C)NC(=O)[C@H](Cc1ccc(O)cc1)NC(=O)[C@@H]1CCCN1C(=O)[C@@H]1CCCN1C(=O)[C@H](CCCCN)NC(=O)[C@H](CC(=O)O)NC(=O)[C@@H](N)C(C)C)C(=O)N[C@@H](Cc1ccc(O)cc1)C(=O)N[C@@H](CC(N)=O)C(=O)N[C@H](CCCNC(=N)N)C(N)=O; assay = broth microdilution; test system = DSM 681; setting = 18 h, 37 °C, 25% MHB2; MIC = 8 µg/mL
Structure (SMILES) = CC[C@H](C)[C@H](NC(=O)[C@H](Cc1c[nH]c2ccccc12)NC(=O)[C@H](CCCNC(=N)N)NC(=O)[C@@H](N)CCCNC(=N)N)C(=O)N[C@@H](CCCNC(=N)N)C(=O)N[C@@H](Cc1c[nH]c2ccccc12)C(=O)N[C@H](C(=O)N[C@H](C(N)=O)[C@@H](C)O)[C@@H](C)CC; test system = 13883; MIC = 512 µg/mL
Structure (SMILES) = C=CCO/N=C(\C(=O)N[C@@H]1C(=O)N(OS(=O)(=O)O)C1(C)C)c1csc(N)n1; assay = agar dilution; test system = 09-20, NDM-1; MIC = 1 µg/mL
Structure (SMILES) = CN[C@@H]1[C@H](O)[C@H](NC)[C@H]2O[C@]3(O)[C@H](O[C@@H]2[C@H]1O)O[C@H](C)C[C@H]3NC(=O)Cc1cscn1; assay = microbial growth, broth dilution; test system = ATCC33495; MIC = 100 µg/mL
Structure (SMILES) = COc1ccc2ccc(O)c(/C=N/[C@H]3CCCC[C@H]3/N=C/c3cc(C)ccc3O)c2c1; assay = bacterial growth, broth microdilution; test system = carbapenem-resistant clinical isolate; MIC = > 40 µM
Structure (SMILES) = CC[C@H](C)[C@H](NC(=O)[C@H](CCCCN)NC(=O)[C@@H](NC(=O)[C@@H](NC(=O)[C@H](CC(C)C)NC(=O)[C@H](CCCNC(=N)N)NC(=O)[C@@H](NC(=O)[C@H](CC(C)C)NC(=O)[C@H](CCCNC(=N)N)NC(=O)CNC(=O)[C@H](Cc1ccccc1)NC(=O)[C@@H](N)CCCNC(=N)N)[C@@H](C)CC)[C@@H](C)CC)C(C)C)C(=O)N[C@@H](C)C(=O)N[C@@H](CCCNC(=N)N)C(=O)N[C@@H](CCCNC(=N)N)C(=O)N[C@@H](C)C(=O)N[C@@H](Cc1c[nH]cn1)C(=O)N[C@@H](CCCNC(=N)N)C(=O)N[C@@H](C)C(=O)N[C@@H](CCCNC(=N)N)C(=O)N1CCC[C@H]1C(=O)N[C@@H](C)C(=O)N[C@H](C(=O)N[C@@H](CCCCN)C(=O)N[C@@H](C)C(=O)N[C@@H](C)C(=O)N[C@@H](CO)C(=O)N[C@@H](CC(N)=O)C(=O)N[C@H](C(=O)N[C@@H](C)C(=O)N[C@@H](CCC(=O)O)C(=O)N[C@@H](CC(C)C)C(=O)N[C@@H](C)C(=O)N[C@@H](Cc1c[nH]cn1)C(=O)NCC(=O)N[C@@H](CCC(=O)O)C(N)=O)C(C)C)C(C)C; assay = bacterial growth, broth microdilution; test system = cation-adjusted Mueller Hinton broth; setting = 18 h, 37 °C; MIC = > 7.99 µM
Structure (SMILES) = CCCCCCCC(=O)N[C@@H](CCN)C(=O)N[C@H](C(=O)N[C@@H](CCN)C(=O)N[C@H]1CCNC(=O)[C@H]([C@@H](C)O)NC(=O)[C@H](CCN)NC(=O)[C@H](CCN)NC(=O)[C@H](CCC(C)C)NC(=O)[C@@H](Cc2ccccc2)NC(=O)[C@H](CCN)NC1=O)[C@@H](C)O; assay = broth microdilution; test system = ATCC 13883, colistin-susceptible; MIC = 0.25 to 4 µg/mL

Some of these lines once more:
Structure (SMILES) = CC[C@H](C)[C@H](NC(=O)[C@H](Cc1c[nH]c2ccccc12)NC(=O)[C@H](CCCNC(=N)N)NC(=O)[C@@H](N)CCCNC(=N)N)C(=O)N[C@@H](CCCNC(=N)N)C(=O)N[C@@H](Cc1c[nH]c2ccccc12)C(=O)N[C@H](C(=O)N[C@H](C(N)=O)[C@@H](C)O)[C@@H](C)CC; test system = 13883; MIC = 512 µg/mL
